Measurements collected from several papers.
Each numbered part is a random draw from the data of one study; scales do not carry over between parts.

Set 1
Target: Sal-like protein 4, full length isoform B (SALL4, Homo sapiens, UniProt Q9UJQ4-2, residues 1-616)
Technique: universal PBM
Form: double-stranded DNA, one strand shown
Sample: in vitro
Concentration: not given
Setting: 8-mer, flanks averaged, mean of replicates
Reading: higher = stronger binding
Oligonucleotide	E-score
CCCCCACC	-0.345
AACGAACT	0.0243
CCGAAGAC	-0.165
ATCACACG	0.127
CAAGGAAA	0.0225

Set 2
Target: Hepatocyte nuclear factor 3-beta, forkhead domain (FOXA2, Homo sapiens, UniProt Q9Y261, residues 142-269)
Technique: protein-binding microarray
Form: double-stranded DNA, one strand shown
Sample: in vitro
Concentration: not given
Setting: k-mer, scored over probes, only values ≥0.25
Reading: higher = stronger binding
Residues (chain): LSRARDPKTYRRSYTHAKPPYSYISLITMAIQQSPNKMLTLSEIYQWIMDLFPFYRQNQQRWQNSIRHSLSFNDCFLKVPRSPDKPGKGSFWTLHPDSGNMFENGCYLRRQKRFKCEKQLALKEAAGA
Oligonucleotide	E-score
GTGTATAA	0.284
AATACCAC	0.311
GATGTGAA	0.275

Set 3
Target: Histone acetyltransferase KAT6A, winged helix 1, GST fusion (KAT6A, Homo sapiens, UniProt Q92794, residues 1-85)
Technique: protein binding microarray
Form: double-stranded DNA, one strand shown
Sample: in vitro
Concentration: not given
Setting: 8-mer, flanks averaged, mean of 2 arrays, mostly near background
Baseline: not given
Reading: higher = stronger binding
Target sequence (chain): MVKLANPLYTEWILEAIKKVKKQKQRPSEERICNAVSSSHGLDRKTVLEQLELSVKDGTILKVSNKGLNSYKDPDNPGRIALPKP
Oligonucleotide	E-score
AATTAAGG	-0.0919
AATGTTAT	-0.234
AAACGCCT	0.0192
CACTCTCG	-0.0153
GCGGACGC	0.347

Mixed results
Molecule	target	test	system	setting	scale	quantity	result
PhoQ, residues 284 288 289 292 302 303 TLASMF	PhoP, residues 12 14 15 18 19 LHSVW (Escherichia coli, UniProt P23836)	Sort-seq, item: YFP reporter	E. coli	PhoQ-PhoP variant library, added: 10 µM Mg2+	baseline: high Mg2+ state, higher = stronger signaling	fold induction	3.22

A few entries again (set 2):
Oligonucleotide	E-score
AATACCAC	0.311
